Assay results collected from several papers.
Each line is one published result; not all experiments were run side by side. ± marks the error that the study gave.
ESR1: Estrogen receptor (ESR1, Homo sapiens, UniProt P03372)
Chain of UniProt P03372 (whole entry, looked up): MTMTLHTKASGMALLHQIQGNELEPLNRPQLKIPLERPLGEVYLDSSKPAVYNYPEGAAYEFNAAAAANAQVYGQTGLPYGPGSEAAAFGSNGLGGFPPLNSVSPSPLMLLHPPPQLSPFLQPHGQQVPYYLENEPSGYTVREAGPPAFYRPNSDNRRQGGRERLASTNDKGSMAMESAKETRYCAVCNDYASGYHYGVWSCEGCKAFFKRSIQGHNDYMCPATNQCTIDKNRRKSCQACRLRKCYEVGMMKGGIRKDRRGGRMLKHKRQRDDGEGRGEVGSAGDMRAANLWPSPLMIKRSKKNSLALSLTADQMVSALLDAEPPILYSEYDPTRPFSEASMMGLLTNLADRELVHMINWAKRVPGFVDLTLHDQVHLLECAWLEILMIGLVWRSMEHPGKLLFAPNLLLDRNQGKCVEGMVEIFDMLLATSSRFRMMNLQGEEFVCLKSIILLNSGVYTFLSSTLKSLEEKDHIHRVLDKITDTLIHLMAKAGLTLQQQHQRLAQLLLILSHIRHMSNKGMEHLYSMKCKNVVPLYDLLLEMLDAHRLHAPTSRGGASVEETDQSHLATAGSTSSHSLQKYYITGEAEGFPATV

SMILES = CCC(=C(c1ccc(Cl)cc1)c1ccc(OCCN2CCOCC2)cc1)c1ccccc1; target = ESR1; test = reporter gene, agonist, yeast estrogen screen; setting = 1 µM; scale = baseline: DMSO; endpoint = β-galactosidase activity fold; value = 4.19
SMILES = CCCCCCCCCCCCSc1nc2c([nH]1)c(=S)n(C)c(=O)n2C; target = ESR1; test = reporter gene, ERE luciferase; system = T47D-KBluc; setting = 10 µM, 24 h, together with: estradiol 5 nM; scale = baseline: maximal luciferase activity; endpoint = reporter activity; value = 49%
SMILES = CCc1c(-c2ccc(O)cc2)nn(-c2ccc(O)cc2)c1-c1ccc(OCCN2CCCCC2)cc1; target = ESR1; test = competitor, radioligand binding; setting = concentration not given; scale = baseline: estradiol; endpoint = relative binding affinity; value = 11.5 ± 1.5
SMILES = CC/C(=C(\c1ccc(O)cc1)c1ccc(OCCN(C)CCOCCOCCOCCN(C)CCOc2ccc(/C(=C(/CC)c3ccccc3)c3ccc(O)cc3)cc2)cc1)c1ccccc1; target = ESR1; test = ligand, radioligand competition binding; setting = concentration not given, together with: [3H]estradiol tracer; scale = baseline: estradiol; endpoint = relative binding affinity; value = 37.2%
SMILES = COc1ccc(CC(C)=C(c2ccc(Cl)cc2)c2ccc(OCCN3CCOCC3)cc2)cc1; target = ESR1; test = reporter gene, agonist, yeast estrogen screen; setting = 1 µM; scale = baseline: DMSO; endpoint = fold activation; value = 1.07 ± 0.09 fold
SMILES = CCCCCCCCSc1nc2c([nH]1)c(=O)n(C)c(=S)n2C; target = ESR1; test = reporter gene, ERE luciferase; system = T47D-KBluc; setting = 10 µM, 24 h, together with: estradiol 5 nM; scale = baseline: maximal luciferase activity; endpoint = reporter activity; value = 79%
SMILES = CCC(=C(c1ccc(O)cc1)c1ccc(OCCN(C)CCOCCOCCOCCOCCOCCOCCOCCOCCOCCN(C)CCOc2ccc(C(=C(CC)c3ccccc3)c3ccc(O)cc3)cc2)cc1)c1ccccc1 (mixture of isomers); target = ESR1; test = competitor, radioligand competition binding; setting = concentration not given, together with: [3H]estradiol; scale = baseline: estradiol; endpoint = relative binding affinity; value = 23.9 ± 6.9%
SMILES = CCC(=C(c1ccc(Cl)cc1)c1ccc(OCCN2CCCCCC2)cc1)c1ccccc1; target = ESR1; test = reporter gene, agonist, yeast estrogen screen; setting = 1 µM; scale = baseline: DMSO; endpoint = β-galactosidase activity fold; value = 2.98
SMILES = CCC(=C(c1ccc(O)cc1)c1ccc(OCCN(C)CCOCCOCCOCCOCCOC)cc1)c1ccccc1 (mixture of isomers); target = ESR1; test = competitor, radioligand competition binding; setting = concentration not given, together with: [3H]estradiol; scale = baseline: estradiol; endpoint = relative binding affinity; value = 12.4 ± 2.2%
SMILES = C[C@@H]1Cc2c([nH]c3ccccc23)[C@@H](c2c(F)cc(/C=C/C(=O)O)cc2F)N1C12CC(C1)C2; target = ESR1; test = degrader, Western blot; system = MCF-7; setting = 100 nM, 24 h; endpoint = ER degradation; value = 73%
SMILES = O=C1c2c(O)cc(O)cc2-c2c(-c3ccc(O)cc3)oc3cc(O)cc1c23; target = ESR1; test = degrader, ELISA; system = MCF7; setting = 10 µM, 24 h; scale = baseline: vehicle; endpoint = reduction in protein level; value = 72.8%
SMILES = CCCCCSc1nc2c([nH]1)c(=O)n(C)c(=O)n2C; target = ESR1; test = reporter gene, ERE luciferase; system = T47D-KBluc; setting = 10 µM, 24 h, together with: estradiol 5 nM; scale = baseline: maximal luciferase activity; endpoint = reporter activity; value = 109%
SMILES = CCC(=C(c1ccc(Cl)cc1)c1ccc(OCCCN(C)C)cc1)c1ccc(OC)cc1; target = ESR1; test = reporter gene, agonist, yeast estrogen screen; setting = 1 µM; scale = baseline: DMSO; endpoint = β-galactosidase activity fold; value = 3.32
SMILES = CCCCCCSc1nc2c([nH]1)c(=S)n(C)c(=S)n2C; target = ESR1; test = reporter gene, ERE luciferase; system = T47D-KBluc; setting = 10 µM, 24 h, together with: estradiol 5 nM; scale = baseline: maximal luciferase activity; endpoint = reporter activity; value = 94%
SMILES = CCC(=C(c1ccc(Cl)cc1)c1ccc(OCCN2CCOCC2)cc1)c1ccc(Cl)cc1; target = ESR1; test = reporter gene, agonist, yeast estrogen screen; setting = 1 µM; scale = baseline: DMSO; endpoint = fold activation; value = 1.21 ± 0.07 fold
SMILES = CCCCCCCCSc1nc2c([nH]1)c(=O)n(C)c(=O)n2C; target = ESR1; test = reporter gene, ERE luciferase; system = T47D-KBluc; setting = 10 µM, 24 h, together with: estradiol 5 nM; scale = baseline: maximal luciferase activity; endpoint = reporter activity; value = 112%
SMILES = O=S(=O)([C@H]1C[C@H]2O[C@@H]1C(c1ccc(O)cc1)=C2c1ccc(O)cc1)N(CC(F)(F)F)c1ccc(Cl)cc1; target = ESR1; setting = concentration not given; scale = baseline: estradiol; endpoint = relative binding affinity; value = 0.054
SMILES = CCC(=C(c1ccc(O)cc1)c1ccc(OCCN(C)CCOCCOCCOCCOCCOCCOCCOCCN(C)CCOc2ccc(C(=C(CC)c3ccccc3)c3ccc(O)cc3)cc2)cc1)c1ccccc1 (mixture of isomers); target = ESR1; test = competitor, radioligand competition binding; setting = concentration not given, together with: [3H]estradiol; scale = baseline: estradiol; endpoint = relative binding affinity; value = 32.3 ± 8.1%
SMILES = CCCCCCCCSc1nc2c([nH]1)c(=S)n(C)c(=S)n2C; target = ESR1; test = reporter gene, ERE luciferase; system = T47D-KBluc; setting = 10 µM, 24 h, together with: estradiol 5 nM; scale = baseline: maximal luciferase activity; endpoint = reporter activity; value = 77%
SMILES = CCC(=C(c1ccc(Cl)cc1)c1ccc(OCCN2CCOCC2)cc1)c1ccc(OC)cc1; target = ESR1; test = reporter gene, agonist, yeast estrogen screen; setting = 1 µM; scale = baseline: DMSO; endpoint = fold activation; value = 6.46 ± 0.69 fold
SMILES = CCC(=C(c1ccc(O)cc1)c1ccc(OCCN(C)CCOCCOCCOCCOCCOCCOCCOCCOCCOCCOCCOCCN(C)CCOc2ccc(C(=C(CC)c3ccccc3)c3ccc(O)cc3)cc2)cc1)c1ccccc1 (mixture of isomers); target = ESR1; setting = concentration not given, Z-Z:Z-E:E-E 1:2:1, together with: [3H]-estradiol; scale = baseline: estradiol; endpoint = relative binding affinity; value = 21.8 ± 3.1%
SMILES = CCCCC(C)Sc1nc2c([nH]1)c(=S)n(C)c(=O)n2C (stereo not drawn); target = ESR1; test = reporter gene, ERE luciferase; system = T47D-KBluc; setting = 10 µM, 24 h, together with: estradiol 5 nM; scale = baseline: maximal luciferase activity; endpoint = reporter activity; value = 104%
SMILES = CCC(=C(c1ccc(Cl)cc1)c1ccc(OCCN2CCCCC2)cc1)c1ccc(Cl)cc1; target = ESR1; test = reporter gene, agonist, yeast estrogen screen; setting = 1 µM; scale = baseline: DMSO; endpoint = fold activation; value = 1.14 fold
SMILES = CCSc1nc2c([nH]1)c(=S)n(C)c(=S)n2C; target = ESR1; test = reporter gene, ERE luciferase; system = T47D-KBluc; setting = 10 µM, 24 h, together with: estradiol 5 nM; scale = baseline: maximal luciferase activity; endpoint = reporter activity; value = 95%
SMILES = CC(=C(c1ccc(O)cc1)c1ccc(Cl)cc1)c1ccc(Cl)cc1; target = ESR1; test = reporter gene, agonist, yeast estrogen screen; setting = 1 µM; scale = baseline: DMSO; endpoint = β-galactosidase activity fold; value = 12.8
SMILES = CC(=O)N[C@@H](Cc1c[nH]cn1)C(=O)N[C@@H](CCCCN)C(=O)N[C@@]1(C)C[C@H](C)C/C=C\CCC[C@@](C)(C(=O)N[C@@H](CC(C)C)C(=O)N[C@@H](CCC(N)=O)C(=O)N[C@@H](CC(=O)O)C(=O)N[C@@H](CO)C(N)=O)NC(=O)[C@H](CCCNC(=N)N)NC(=O)[C@H](Cc2c[nH]cn2)NC(=O)[C@H](CC(C)C)NC1=O; target = Estrogen receptor, ligand-binding domain; with SRC3 (ESR1, Homo sapiens, UniProt P03372); test = ERα/SRC3 interaction, inhibitor, TR-FRET; scale = baseline: wild-type peptide; endpoint = potency ratio; value = 12 fold
SMILES = Oc1ccc(-c2cc(-c3ccc(OCCCN4CCCCC4)cc3)n(-c3ccc(O)cc3)n2)cc1; target = ESR1; test = competitive radioligand binding; setting = concentration not given; scale = baseline: estradiol, higher = stronger binding; endpoint = relative binding affinity; value = 1.75 ± 0.43
